{"data": "Measurements from different studies", "note": "Numbered parts are unrelated; each lists some results of a single study. Changes are numbered by the printed parent chain.", "UniProt P41743, sequence (whole entry, looked up)": "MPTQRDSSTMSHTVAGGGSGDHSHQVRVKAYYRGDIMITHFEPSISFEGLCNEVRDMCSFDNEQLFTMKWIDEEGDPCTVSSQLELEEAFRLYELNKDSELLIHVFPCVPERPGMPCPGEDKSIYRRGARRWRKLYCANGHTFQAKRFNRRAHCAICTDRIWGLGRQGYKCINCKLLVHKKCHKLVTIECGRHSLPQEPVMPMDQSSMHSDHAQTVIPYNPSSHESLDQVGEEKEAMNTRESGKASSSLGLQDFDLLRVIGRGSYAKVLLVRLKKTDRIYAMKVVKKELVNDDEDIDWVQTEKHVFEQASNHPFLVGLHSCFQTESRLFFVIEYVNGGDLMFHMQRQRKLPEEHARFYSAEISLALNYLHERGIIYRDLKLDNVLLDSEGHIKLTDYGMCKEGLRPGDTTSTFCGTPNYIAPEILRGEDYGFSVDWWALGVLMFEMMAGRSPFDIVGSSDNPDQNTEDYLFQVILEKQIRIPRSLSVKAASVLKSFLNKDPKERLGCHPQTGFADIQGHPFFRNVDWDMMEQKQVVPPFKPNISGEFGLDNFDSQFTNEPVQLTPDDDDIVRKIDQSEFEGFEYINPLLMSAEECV"}
{"data": "Study 1", "target": "UDP-N-acetylglucosamine--peptide N-acetylglucosaminyltransferase 110 kDa subunit (OGT, Homo sapiens, UniProt O15294)", "effect on": "binding", "method": "phage display NGS", "form": "peptide", "reference": "input library", "UniProt O15294, sequence (whole entry, looked up)": "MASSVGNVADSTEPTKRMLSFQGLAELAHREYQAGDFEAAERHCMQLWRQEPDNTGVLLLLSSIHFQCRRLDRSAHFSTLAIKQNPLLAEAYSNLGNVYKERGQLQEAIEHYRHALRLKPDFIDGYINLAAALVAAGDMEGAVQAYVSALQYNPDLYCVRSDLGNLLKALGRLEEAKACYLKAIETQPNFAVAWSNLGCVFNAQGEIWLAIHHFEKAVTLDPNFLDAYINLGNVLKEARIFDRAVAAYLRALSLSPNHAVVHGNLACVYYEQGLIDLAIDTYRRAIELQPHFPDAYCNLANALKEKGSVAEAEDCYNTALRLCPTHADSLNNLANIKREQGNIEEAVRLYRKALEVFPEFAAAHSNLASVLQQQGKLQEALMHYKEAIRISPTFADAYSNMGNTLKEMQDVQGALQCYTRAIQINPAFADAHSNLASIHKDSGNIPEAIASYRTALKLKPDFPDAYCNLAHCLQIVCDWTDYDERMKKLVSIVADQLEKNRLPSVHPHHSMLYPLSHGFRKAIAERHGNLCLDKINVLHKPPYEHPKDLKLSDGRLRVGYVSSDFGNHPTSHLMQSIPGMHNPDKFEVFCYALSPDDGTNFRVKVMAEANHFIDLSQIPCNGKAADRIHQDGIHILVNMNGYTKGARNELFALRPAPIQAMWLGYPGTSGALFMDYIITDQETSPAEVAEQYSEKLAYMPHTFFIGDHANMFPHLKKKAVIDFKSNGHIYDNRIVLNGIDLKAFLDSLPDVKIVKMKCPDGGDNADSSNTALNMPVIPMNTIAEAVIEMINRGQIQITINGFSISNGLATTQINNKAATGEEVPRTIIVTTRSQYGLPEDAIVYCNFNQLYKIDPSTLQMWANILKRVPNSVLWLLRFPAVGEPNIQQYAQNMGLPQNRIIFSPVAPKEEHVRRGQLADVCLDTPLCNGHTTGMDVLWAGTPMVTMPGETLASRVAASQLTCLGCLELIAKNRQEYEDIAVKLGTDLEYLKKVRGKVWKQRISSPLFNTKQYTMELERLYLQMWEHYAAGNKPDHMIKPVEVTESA"}
{"Sequence": "HVNYTTGHHTMSMH", "minimum log2 enrichment ratio": 2.51}
{"Sequence": "HPIHPHRNKFDVMFI", "minimum log2 enrichment ratio": 1.74}
{"Sequence": "FSPYRHFQHSHSSTD", "minimum log2 enrichment ratio": 1.34}
{"Sequence": "RFNADHHYHDHHIVA", "minimum log2 enrichment ratio": 2.29}
{"Sequence": "QHITHYHFTHQFDTH", "minimum log2 enrichment ratio": 1.83}
{"Sequence": "NAFFLPAYQIPIVQA", "minimum log2 enrichment ratio": 4.46}
{"Sequence": "NIMPAYQIMYPANFR", "minimum log2 enrichment ratio": 4.65}
{"Sequence": "KFTFMPLYQIEYNI", "minimum log2 enrichment ratio": 4.67}
{"data": "Study 2", "target": "CCNB2, cyclin fold, Cln2 fusion (human)", "method": "yeast growth competition, sequencing", "sample": "yeast", "notes": "strong parent motif", "reference": "not given", "reading": "higher = stronger binding", "starting sequence": "viral docking peptide; YKVKRRLVFGADD; partner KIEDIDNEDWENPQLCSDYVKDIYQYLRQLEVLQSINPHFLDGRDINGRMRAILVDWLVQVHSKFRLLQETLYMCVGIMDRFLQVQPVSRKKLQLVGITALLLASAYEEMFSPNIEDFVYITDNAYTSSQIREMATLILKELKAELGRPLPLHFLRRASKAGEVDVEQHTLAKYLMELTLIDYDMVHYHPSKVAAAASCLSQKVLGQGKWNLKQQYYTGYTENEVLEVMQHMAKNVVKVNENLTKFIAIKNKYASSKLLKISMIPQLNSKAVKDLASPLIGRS"}
{"Change": "YKTKRRLVFGADD [V3T]", "normalised enrichment score": 0.944}
{"Change": "YKRKRRLVFGADD [V3R]", "normalised enrichment score": 0.703}
{"Change": "YKVKRWLVFGADD [R6W]", "normalised enrichment score": 0.0989}
{"Change": "YKVKRRLVFGHDD [A11H]", "normalised enrichment score": 1.5}
{"Change": "YKVKRRLVFGWDD [A11W]", "normalised enrichment score": 1.72}
{"Change": "YKVKRRLVCGADD [F9C]", "normalised enrichment score": 0.779}
{"Change": "YKVKRRLAFGADD [V8A]", "normalised enrichment score": 0.729}
{"Change": "YKVKRRLVFGAFD [D12F]", "normalised enrichment score": 1.39}
{"data": "Study 3", "target": "vanadate, free oxyanion", "method": "microfluidic competitive inhibition", "sample": "in vitro, cell-free expressed", "concentration": "not given", "notes": "derived from inhibition constants, unchanged parent 676 nM", "reading": "lower = stronger binding", "starting sequence": "PafA, mature enzyme, eGFP fusion (Elizabethkingia meningoseptica, UniProt Q9KJX5); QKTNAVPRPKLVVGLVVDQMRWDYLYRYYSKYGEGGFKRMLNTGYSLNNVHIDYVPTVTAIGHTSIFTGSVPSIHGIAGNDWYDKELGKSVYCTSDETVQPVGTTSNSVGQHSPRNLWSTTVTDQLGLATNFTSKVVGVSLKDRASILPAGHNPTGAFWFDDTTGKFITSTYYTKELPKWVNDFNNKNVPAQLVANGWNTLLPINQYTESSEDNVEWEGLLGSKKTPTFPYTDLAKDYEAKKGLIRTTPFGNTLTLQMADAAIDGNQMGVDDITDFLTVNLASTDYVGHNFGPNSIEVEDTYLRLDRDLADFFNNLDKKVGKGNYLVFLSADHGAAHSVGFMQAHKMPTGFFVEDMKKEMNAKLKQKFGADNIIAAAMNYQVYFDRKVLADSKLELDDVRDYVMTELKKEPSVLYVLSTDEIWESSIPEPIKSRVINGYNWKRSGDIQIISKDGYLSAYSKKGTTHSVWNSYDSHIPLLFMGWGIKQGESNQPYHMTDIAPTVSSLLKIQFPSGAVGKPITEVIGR"}
{"Change": "V388G", "oxyanion analog dissociation constant": "694 nM"}
{"Change": "G292V", "oxyanion analog dissociation constant": "3.37 µM"}
{"Change": "T208G", "oxyanion analog dissociation constant": "587 nM"}
{"Change": "V12G", "oxyanion analog dissociation constant": "426 nM"}
{"Change": "P227V", "oxyanion analog dissociation constant": "625 nM"}
{"Change": "I436V", "oxyanion analog dissociation constant": "828 nM"}
{"Change": "G222V", "oxyanion analog dissociation constant": "724 nM"}
{"Change": "K358V", "oxyanion analog dissociation constant": "868 nM"}
{"data": "Other studies, line by line"}
{"Structure (SMILES)": "N/C(=N\\[N+](=O)[O-])N/N=C\\c1ccc(-c2cccc([N+](=O)[O-])c2)o1", "target": "Protein kinase C iota type (PRKCI, Homo sapiens, UniProt P41743)", "test": "enzyme activity, inhibitor", "setting": "0.5 µM", "scale": "reference: control", "measurement": "remaining activity", "value": "92.3%"}
